Experimental data gathered from unrelated publications.
Numbered parts are unrelated; each lists some results of a single study. Substitutions count along the parent as printed.

Series 1
Target: PABPC1L2, full length, GST fusion (mouse, UniProt A0ABA7IW68)
Technique: RNAcompete
Molecule type: RNA
Medium: in vitro
Concentration: 20 nM
Notes: 7-mer, probes averaged, single round
Reference: mean of 7-mers
Direction: higher = stronger binding
Measurement: 7-mer Z-score
Residues (chain): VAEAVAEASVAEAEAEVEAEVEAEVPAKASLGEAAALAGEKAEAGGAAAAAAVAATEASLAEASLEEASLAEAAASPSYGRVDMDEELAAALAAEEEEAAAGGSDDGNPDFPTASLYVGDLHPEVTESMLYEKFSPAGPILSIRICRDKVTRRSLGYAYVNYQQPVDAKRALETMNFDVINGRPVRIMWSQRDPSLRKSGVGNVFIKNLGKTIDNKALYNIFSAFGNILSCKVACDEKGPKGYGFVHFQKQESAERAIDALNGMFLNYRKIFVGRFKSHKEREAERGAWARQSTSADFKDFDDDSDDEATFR
AGAUCUA: -0.151
GUAUAAU: -0.2
AACGGGA: 0.418
UUGUUAC: -0.306
AUACAGC: 0.22
CGUUGUG: -0.295
ACAUAGU: -0.0899
AACUCCC: -0.182
ACAUCGC: -0.191
CUCCAAG: -0.22
UGGCUUG: -0.151
UCACUCA: -0.133
UCUCAAA: 0.276
GUAUUAA: -0.021
AGGGUUA: 0.278
CAGCAGC: -0.0482
CAUGCCU: -0.153
GUAAGGC: 0.0623
GGUCACG: 0.0261

Series 2
Substance: H1-4 (Homo sapiens, UniProt P10412)
Technique: cross-linking MS
Notes: hits only
Measurement: interaction screen
HMGA1 (Homo sapiens, UniProt P17096): cross-linked
H2AC14 (Homo sapiens, UniProt Q99878): cross-linked
H3-5 (Homo sapiens, UniProt Q6NXT2): cross-linked

Series 3
Target: Sal-like protein 4, full length isoform B (SALL4, Homo sapiens, UniProt Q9UJQ4-2, residues 1-616)
Technique: universal PBM
Molecule type: double-stranded DNA, one strand shown
Medium: in vitro
Concentration: not given
Notes: 8-mer, flanks averaged, mean of replicates
Direction: higher = stronger binding
Measurement: E-score
ATAGACCA: 0.0792
CCGACCTA: -0.118
CAGTACCC: -0.111
ACCCCTAA: -0.0995
AAACGGGG: -0.0603
GAAGTACA: 0.0529
CGGCACAA: -0.179
CGGTTACA: 0.0656
ACCTGCTG: -0.0287
CGGCGTGC: -0.257
CTAGGGCA: -0.177
GCTTCTCA: -0.123
CTGGGGTA: -0.206
GGTCAGGA: -0.164
CGAGTCAC: -0.221
ACGTTCAG: -0.134
TCCCAACA: -0.0131
CGCTGTAC: -0.0389
ACTACCCG: -0.254
ACTGGCCG: -0.32
CCGAGATA: -0.0265
GACCAGCC: -0.269
GCCCGTAC: -0.163
ATCGGCGA: -0.172
CCGTTCGA: -0.0596

Series 4
Target: RNA binding protein fox-1 homolog 2, RRM domain, GST-SBP tag (RBFOX2, Homo sapiens, UniProt O43251-10, residues 100-194)
Technique: RNA Bind-n-Seq
Molecule type: RNA
Medium: in vitro
Concentration: 365 nM
Notes: natural RNA segment, single round, ends assumed
Reference: no-protein control
Direction: higher = stronger binding
Measurement: RBNS enrichment (R)
Constant ends, left off below: GGGAGUUCUACAGUCCGACGAUC … UGGAAUUCUCGGGUGCCAA
Construct (chain): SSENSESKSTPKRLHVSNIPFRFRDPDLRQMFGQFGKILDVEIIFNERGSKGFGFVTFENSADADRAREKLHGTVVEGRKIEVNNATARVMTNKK
CUAUCUUCUCACCACUGGCUUGAGGUAGUGAUUUGGACUUUGCUCAUUAGAGAGCAUUAUCAGAGAUGUGGAGUCCAUCAGAAGACCAGCUUGCAGUGUGUAUAGCAUAU: 0.78
UUUGCGUUAAUGAAGACUACACAGAAAACCUUUCUAGGGAUUUGUGUGGAUCAGAUACAUACUUGGCAAAUUUUUGAGUUUUACAUUCUUACAGAAAAGUCCAUUUAAAA: 0.584
GCUGAAUGGGGCUGCAAGGCCAAGGCUCCUUAGGGGAGAGGUCCUUACCUCUGAUCCACUUAGAGCAAUAACCACUUUUUAAAUGUAAAAUAAAAAGACAAAUGAAAAGG: 0.53
UUUGUUAAAAUGCUAUUUUUAAAACCAUAUGAAGGUAGGAUAAUUAAUUACAAGUCCACAUCAUGAGACAAACUGAAGUAACUUAGGCAAAACAGGUAAAACAGUCAUAG: 0.304
CCAAGCAAGCUUUUUCCUUCAUAUGAGCUGUCAUACUGUAUUUUGACCUCUUUCUGCACGAAAAAAGAAAGAAAAAUGACAGCUGGAAAAAGUCCUUUGUAUUGGCACAU: 19
UAGAACAUAUCACAUUGCAACACCCUAAAUUGUUUUUAAUACAUUAGCAAUCUAUUGGGUCAACUGACAUCCAUUGUAUAUACUAGUUUCUUUCAUGCUAUUUUUAUUUU: 0.623
UAAAAAAAUGUUUAAAGAUGUCUUCAAGGAAGACUAGAGUCUUUAAAUCACUUAUAGCUAUAUUUUACUACAAAAAUUCUGUAUAAAGAUAUAUUUAAAUAUUUUAGAGA: 0.932
ACUUGUUUCCAUUCAAUGACAAUUAAAAUAGCUUGUAAAUGAGGGCAUACAAGCAUUUGCAACAAGUAUUCAAAUAGAGGCUCACAGCGGCAUAAGCUGGACUUUGUCGC: 0.963

Series 5
Target: CEP164, C-terminal peptide (human)
Technique: DHFR complementation, deep sequencing
Medium: yeast
Notes: single substitutions, model-inferred values
Reference: wild type
Direction: higher = weaker binding
Measurement: binding free energy change
Parent: PDZK1, PDZ domain 2 (human); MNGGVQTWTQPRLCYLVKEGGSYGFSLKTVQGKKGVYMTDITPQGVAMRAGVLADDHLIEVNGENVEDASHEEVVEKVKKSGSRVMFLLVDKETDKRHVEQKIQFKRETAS; partner HNRVKVYRF
V85C: 0.477 kcal/mol
G3Y: 0.0149 kcal/mol
V75Y: 1.43 kcal/mol
A50N: 0.269 kcal/mol
F25M: 1.01 kcal/mol
V78Y: 2.17 kcal/mol
L13P: 0.211 kcal/mol
I103W: -0.129 kcal/mol
K92L: 0.0549 kcal/mol
M1N: 0.00602 kcal/mol
A50T: 0.501 kcal/mol
I59H: 1.18 kcal/mol
V66Y: 1.06 kcal/mol
L58E: 1.01 kcal/mol
L13T: -0.0882 kcal/mol
L53P: 0.951 kcal/mol
I103H: -0.122 kcal/mol
D95K: -0.155 kcal/mol

Series 6
Target: CCNA2, cyclin fold, Cln2 fusion (human)
Technique: yeast growth competition, sequencing
Medium: yeast
Notes: strong parent motif
Reference: not given
Direction: higher = stronger binding
Measurement: normalised enrichment score
Parent: ORC1 docking peptide (human); PRARKRLELGNLG
R6S: 1.78
R2P: 4.81
L9E: 0.651
A3M: 3.64
R4G: 1.31
E8R: 3.37
L7R: 1.12
N11A: 4.77
G10R: 2.92
L9S: 0.915
R4D: 0.699
A3K: 0.834
L7E: 0.843
A3R: 0.915
N11T: 5.37
R2K: 5.49
E8Q: 4.84
N11L: 4.65
G10A: 4.36
K5N: 1.52
R6H: 2.19
G13S: 5.4
P1C: 6.43
R4K: 3.85
G10V: 3.64

Single results of other studies
PhoQ, residues 284 288 289 292 302 303 SSCCRF — fold induction (PhoP, residues 12 14 15 18 19 GQAIL (Escherichia coli, UniProt P23836); Sort-seq, item: YFP reporter; E. coli; PhoQ-PhoP variant library, together with: 10 µM Mg2+; reference: high Mg2+ state, higher = stronger signaling): 20.9

Some of these lines once more (series 1):
AACGGGA: 0.418
UUGUUAC: -0.306
AUACAGC: 0.22
CGUUGUG: -0.295
ACAUAGU: -0.0899
AACUCCC: -0.182
ACAUCGC: -0.191
CUCCAAG: -0.22
UGGCUUG: -0.151
UCACUCA: -0.133
UCUCAAA: 0.276
